Results from different studies.
Compare with care: the assays were run in different laboratories. Values joined by “and” are separate records of one study, mostly repeats; a detail may differ.
Cell line: HL-60(TB)

COc1cc(CCCO)c(OC)c2c1OCO2
growth percent (NCI60 SRB; concentration not given): 99.4%

O=C1NC(c2ccccc2)(c2ccccc2)C(=O)N1Cc1cn(-c2cc3ccccc3oc2=O)nn1
growth (NCI60 single dose; 10 µM): 91.1%

COc1cc(CCC[P+](c2ccccc2)(c2ccccc2)c2ccccc2)c(OC)c(OC)c1OC.[I-]
growth percent (NCI60 SRB; concentration not given): 65.7%

CCN(CC)c1ccc(C=NNC(=O)CSc2nc3ccccc3c(=O)n2Cc2ccc(S(N)(=O)=O)cc2)c(O)c1
CC50: > 100 µM

COc1cc(CCCO)cc2c1OCO2
growth percent (NCI60 SRB; concentration not given): 99.6%

CCCCN1CCN(c2ccc3[nH]c(-c4ccc5[nH]c(-c6cc(OC)c(OC)c(OC)c6)nc5c4)nc3c2)CC1
growth percent (cell growth; 10 µM, 48 h): 85.7%

CCCC(CCC)C(=O)OCc1cn(-c2c3ccccc3nc3ccccc23)nn1
growth (NCI60 single dose; 10 µM): 84.4%

CCOC(=O)CSc1nc(-c2ccc(Cl)cc2)c2c(NC(=O)c3ccccc3)nnc-2[nH]1
growth percent (10 µM): 93.7%

CCCCN1CCN(c2ccc3[nH]c(-c4ccc5[nH]c(-c6ccc(OCC)cc6)nc5c4)nc3c2)CC1
growth percent (cell growth; 10 µM, 48 h): 34.3%

O=C1NC(c2ccccc2)(c2ccccc2)C(=O)N1Cc1cn(-c2c3ccccc3nc3ccccc23)nn1
growth (NCI60 single dose; 10 µM): 73.3%

COc1c(CCC[P+](c2ccccc2)(c2ccccc2)c2ccccc2)cc2c(c1OC)OCO2.[I-]
Log10LC50 (SRB): > -4 log M

COc1ccc(OC)c(-c2nc3ccc(-c4nc5ccc(N6CCN(C)CC6)cc5[nH]4)cc3[nH]2)c1
growth percent (cell growth; 10 µM, 48 h): 104%

COc1cc(CNC(=O)CCCCC[P+](c2ccccc2)(c2ccccc2)c2ccccc2)c(OC)c2c1OCO2.[Br-]
growth percent (NCI60 SRB; concentration not given): -2.75%

CC(C)N1CCC(NC2CCN(c3cccc(-c4cc5cc(F)ccc5[nH]4)c3)CC2)CC1
GI50: 1.97 µM

Cc1cc(=O)[nH]c(=O)n1Cc1cn(-c2cc3ccccc3oc2=O)nn1
growth (NCI60 single dose; 10 µM): 101%

COc1cc(CCC[P+](c2ccccc2)(c2ccccc2)c2ccccc2)c(OC)c2c1OCO2.[I-]
Log10GI50 (SRB): -6.41 log M

C#C[C@@]1(O)[C@@H](CO)O[C@@H](n2cc(F)c3c(N)ncnc32)[C@@H]1O
TGI (cell growth): 3.53 µM

O=C(Nc1nnc2n3c(=S)[nH][nH]c3nc(-c3ccc(Cl)cc3)c1-2)c1ccccc1
growth percent (10 µM): 93.2%

CN1CCN(c2ccc3[nH]c(-c4ccc5[nH]c(-c6ccc(C(F)(F)F)cc6)nc5c4)nc3c2)CC1
growth percent (cell growth; 10 µM, 48 h): 23.9%

Cc1cc(C)n(-c2nc(-c3ccc(Cl)cc3)c3c(NC(=O)c4ccccc4)nnc-3[nH]2)n1
growth percent (10 µM): 101%

CCCN1CCN(c2ccc3[nH]c(-c4ccc5[nH]c(-c6ccc(OCC)c(OCC)c6)nc5c4)nc3c2)CC1
growth percent (cell growth; 10 µM, 48 h): -23.1%

Cn1cncc1C1=CN(c2ncnc3[nH]cnc23)CCS1
CC50: > 200 µM

CSc1nc(-c2ccc(Cl)cc2)c2c(NC(=O)c3ccccc3)nnc-2[nH]1
growth percent (10 µM): 94.1%

C#C[C@@]1(O)[C@@H](CO)O[C@@H](n2cc(Cl)c3c(N)ncnc32)[C@@H]1O
TGI (cell growth): 0.317 µM and 0.197 µM

COc1cc(CCCO)c(OC)c(OC)c1OC
growth percent (NCI60 SRB; concentration not given): 98.4%

O=C(Nc1nnc2n3c(nc(-c4ccc(Cl)cc4)c1-2)SCC3=O)c1ccccc1
growth percent (10 µM): 101%

CCCCN1CCN(c2ccc3[nH]c(-c4ccc5[nH]c(-c6ccc(C(F)(F)F)cc6)nc5c4)nc3c2)CC1
growth percent (cell growth; 10 µM, 48 h): -58.7%

Excerpt of the above:
COc1cc(CCC[P+](c2ccccc2)(c2ccccc2)c2ccccc2)c(OC)c(OC)c1OC.[I-]
growth percent (NCI60 SRB; concentration not given): 65.7%

CCN(CC)c1ccc(C=NNC(=O)CSc2nc3ccccc3c(=O)n2Cc2ccc(S(N)(=O)=O)cc2)c(O)c1
CC50: > 100 µM

COc1cc(CCCO)cc2c1OCO2
growth percent (NCI60 SRB; concentration not given): 99.6%
